Results pooled from the literature.
Parts stem from different laboratories: compare values within a part only.
Sequence of UniProt O15111 (whole entry, looked up): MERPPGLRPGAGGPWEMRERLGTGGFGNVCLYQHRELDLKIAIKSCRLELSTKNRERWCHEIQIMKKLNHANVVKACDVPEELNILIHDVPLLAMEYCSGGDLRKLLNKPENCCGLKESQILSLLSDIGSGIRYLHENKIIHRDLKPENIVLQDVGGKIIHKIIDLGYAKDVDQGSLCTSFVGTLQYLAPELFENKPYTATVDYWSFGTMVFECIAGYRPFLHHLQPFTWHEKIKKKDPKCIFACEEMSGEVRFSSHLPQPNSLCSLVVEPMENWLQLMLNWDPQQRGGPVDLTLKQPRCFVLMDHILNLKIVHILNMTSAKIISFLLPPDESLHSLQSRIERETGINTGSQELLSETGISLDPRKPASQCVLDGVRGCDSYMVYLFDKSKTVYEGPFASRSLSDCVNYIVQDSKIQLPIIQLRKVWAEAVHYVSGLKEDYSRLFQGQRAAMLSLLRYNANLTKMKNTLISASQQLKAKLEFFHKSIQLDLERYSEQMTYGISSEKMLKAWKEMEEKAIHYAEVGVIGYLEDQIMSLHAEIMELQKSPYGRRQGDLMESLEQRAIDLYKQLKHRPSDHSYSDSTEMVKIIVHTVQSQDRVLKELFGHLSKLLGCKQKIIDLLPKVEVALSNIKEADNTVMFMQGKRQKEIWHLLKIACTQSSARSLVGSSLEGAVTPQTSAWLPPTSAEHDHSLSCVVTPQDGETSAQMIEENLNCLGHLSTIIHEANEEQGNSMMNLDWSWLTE
Sequence of UniProt Q9UM73 (whole entry, looked up): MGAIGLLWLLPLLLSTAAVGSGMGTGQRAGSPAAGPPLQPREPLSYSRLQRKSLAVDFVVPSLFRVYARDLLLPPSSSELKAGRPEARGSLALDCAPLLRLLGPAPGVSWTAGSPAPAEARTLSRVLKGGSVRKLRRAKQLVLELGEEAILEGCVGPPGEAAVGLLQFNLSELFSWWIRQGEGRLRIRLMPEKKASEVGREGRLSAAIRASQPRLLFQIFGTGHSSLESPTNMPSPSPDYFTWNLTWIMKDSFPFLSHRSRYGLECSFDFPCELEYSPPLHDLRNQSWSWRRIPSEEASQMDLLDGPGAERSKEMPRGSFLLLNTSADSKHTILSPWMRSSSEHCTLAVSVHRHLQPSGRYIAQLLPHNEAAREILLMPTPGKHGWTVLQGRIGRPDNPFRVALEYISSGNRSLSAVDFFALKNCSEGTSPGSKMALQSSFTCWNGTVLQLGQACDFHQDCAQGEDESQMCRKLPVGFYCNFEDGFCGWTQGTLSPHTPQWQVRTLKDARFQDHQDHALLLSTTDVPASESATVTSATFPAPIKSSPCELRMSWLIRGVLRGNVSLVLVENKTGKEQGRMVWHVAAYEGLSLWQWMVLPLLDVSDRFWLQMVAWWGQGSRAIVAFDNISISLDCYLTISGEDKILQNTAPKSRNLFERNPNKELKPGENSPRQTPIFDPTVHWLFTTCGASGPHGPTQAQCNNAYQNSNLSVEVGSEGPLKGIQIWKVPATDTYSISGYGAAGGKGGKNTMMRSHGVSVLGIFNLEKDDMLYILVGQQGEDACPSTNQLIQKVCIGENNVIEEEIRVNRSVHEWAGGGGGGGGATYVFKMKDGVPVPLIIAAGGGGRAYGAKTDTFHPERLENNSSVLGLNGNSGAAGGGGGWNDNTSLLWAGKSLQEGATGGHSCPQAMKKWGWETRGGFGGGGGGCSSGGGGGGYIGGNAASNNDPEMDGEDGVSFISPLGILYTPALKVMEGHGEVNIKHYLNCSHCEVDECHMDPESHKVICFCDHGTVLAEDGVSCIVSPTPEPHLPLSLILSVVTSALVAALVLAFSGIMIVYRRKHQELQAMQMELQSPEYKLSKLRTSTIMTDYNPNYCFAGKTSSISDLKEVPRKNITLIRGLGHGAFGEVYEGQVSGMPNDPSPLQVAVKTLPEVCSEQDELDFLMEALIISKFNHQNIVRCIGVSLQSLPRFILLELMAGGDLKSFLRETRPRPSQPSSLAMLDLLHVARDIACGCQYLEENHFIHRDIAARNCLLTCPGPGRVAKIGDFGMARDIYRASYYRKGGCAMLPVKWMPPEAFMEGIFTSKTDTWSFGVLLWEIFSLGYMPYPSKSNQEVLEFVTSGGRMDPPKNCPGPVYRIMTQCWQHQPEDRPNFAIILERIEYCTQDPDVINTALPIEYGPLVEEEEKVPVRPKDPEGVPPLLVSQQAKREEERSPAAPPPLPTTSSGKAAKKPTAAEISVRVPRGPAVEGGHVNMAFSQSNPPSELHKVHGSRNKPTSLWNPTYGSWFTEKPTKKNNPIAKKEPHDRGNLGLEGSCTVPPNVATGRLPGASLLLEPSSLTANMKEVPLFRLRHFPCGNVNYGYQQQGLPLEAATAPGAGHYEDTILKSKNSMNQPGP
Sequence of UniProt Q13882 (whole entry, looked up): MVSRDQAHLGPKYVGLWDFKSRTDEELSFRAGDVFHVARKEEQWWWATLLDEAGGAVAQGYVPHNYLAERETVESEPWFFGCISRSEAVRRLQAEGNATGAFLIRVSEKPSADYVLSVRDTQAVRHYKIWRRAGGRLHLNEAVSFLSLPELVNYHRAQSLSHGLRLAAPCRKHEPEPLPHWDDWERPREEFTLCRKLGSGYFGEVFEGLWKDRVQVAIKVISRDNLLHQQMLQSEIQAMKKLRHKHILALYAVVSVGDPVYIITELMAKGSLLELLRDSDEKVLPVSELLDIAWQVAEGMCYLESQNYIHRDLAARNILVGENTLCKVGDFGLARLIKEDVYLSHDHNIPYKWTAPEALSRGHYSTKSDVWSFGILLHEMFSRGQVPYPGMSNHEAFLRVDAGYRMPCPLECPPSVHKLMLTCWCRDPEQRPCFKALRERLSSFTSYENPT
Sequence of UniProt P33981 (whole entry, looked up): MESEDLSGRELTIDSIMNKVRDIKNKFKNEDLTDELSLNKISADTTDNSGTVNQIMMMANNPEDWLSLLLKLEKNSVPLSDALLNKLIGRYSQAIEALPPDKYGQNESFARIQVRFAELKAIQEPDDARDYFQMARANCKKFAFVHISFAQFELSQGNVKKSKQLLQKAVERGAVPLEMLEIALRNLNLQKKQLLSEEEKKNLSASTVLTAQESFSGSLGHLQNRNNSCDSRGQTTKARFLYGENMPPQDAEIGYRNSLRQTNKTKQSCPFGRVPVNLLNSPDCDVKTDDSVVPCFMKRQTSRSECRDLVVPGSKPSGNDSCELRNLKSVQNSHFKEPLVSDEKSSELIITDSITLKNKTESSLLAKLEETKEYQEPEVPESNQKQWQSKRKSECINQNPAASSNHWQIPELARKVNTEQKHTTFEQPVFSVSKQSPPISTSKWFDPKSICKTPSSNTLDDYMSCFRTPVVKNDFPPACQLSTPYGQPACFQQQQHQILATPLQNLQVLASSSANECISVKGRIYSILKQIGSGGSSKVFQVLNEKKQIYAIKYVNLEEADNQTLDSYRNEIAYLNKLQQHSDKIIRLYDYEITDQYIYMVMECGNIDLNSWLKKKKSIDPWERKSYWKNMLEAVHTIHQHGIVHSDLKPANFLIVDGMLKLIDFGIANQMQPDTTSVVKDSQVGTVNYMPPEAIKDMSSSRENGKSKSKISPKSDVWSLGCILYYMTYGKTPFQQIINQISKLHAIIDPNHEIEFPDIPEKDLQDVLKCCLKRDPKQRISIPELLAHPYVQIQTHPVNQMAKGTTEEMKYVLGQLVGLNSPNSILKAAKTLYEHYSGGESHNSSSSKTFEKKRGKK
Sequence of UniProt Q9BXA7 (whole entry, looked up): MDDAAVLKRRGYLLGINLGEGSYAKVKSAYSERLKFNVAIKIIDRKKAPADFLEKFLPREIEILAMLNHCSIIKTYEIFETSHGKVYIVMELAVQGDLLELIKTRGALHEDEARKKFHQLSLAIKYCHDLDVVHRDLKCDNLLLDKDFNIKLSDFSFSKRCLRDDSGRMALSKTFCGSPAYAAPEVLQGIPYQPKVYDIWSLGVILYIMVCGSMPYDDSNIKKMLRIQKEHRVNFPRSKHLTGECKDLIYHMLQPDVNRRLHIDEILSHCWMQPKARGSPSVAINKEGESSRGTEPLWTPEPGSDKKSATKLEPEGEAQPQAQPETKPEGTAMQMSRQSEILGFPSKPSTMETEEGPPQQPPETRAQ
Sequence of UniProt P50613 (whole entry, looked up): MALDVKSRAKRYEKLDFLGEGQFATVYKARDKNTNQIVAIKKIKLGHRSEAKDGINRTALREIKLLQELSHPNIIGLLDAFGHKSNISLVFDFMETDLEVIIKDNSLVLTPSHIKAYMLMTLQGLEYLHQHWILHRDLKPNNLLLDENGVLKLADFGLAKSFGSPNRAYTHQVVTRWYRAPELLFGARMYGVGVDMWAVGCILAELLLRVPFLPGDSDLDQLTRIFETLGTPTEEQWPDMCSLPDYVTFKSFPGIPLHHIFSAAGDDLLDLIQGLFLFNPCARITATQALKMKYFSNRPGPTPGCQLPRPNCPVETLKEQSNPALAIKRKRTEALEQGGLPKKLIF
Sequence of UniProt P78362 (whole entry, looked up): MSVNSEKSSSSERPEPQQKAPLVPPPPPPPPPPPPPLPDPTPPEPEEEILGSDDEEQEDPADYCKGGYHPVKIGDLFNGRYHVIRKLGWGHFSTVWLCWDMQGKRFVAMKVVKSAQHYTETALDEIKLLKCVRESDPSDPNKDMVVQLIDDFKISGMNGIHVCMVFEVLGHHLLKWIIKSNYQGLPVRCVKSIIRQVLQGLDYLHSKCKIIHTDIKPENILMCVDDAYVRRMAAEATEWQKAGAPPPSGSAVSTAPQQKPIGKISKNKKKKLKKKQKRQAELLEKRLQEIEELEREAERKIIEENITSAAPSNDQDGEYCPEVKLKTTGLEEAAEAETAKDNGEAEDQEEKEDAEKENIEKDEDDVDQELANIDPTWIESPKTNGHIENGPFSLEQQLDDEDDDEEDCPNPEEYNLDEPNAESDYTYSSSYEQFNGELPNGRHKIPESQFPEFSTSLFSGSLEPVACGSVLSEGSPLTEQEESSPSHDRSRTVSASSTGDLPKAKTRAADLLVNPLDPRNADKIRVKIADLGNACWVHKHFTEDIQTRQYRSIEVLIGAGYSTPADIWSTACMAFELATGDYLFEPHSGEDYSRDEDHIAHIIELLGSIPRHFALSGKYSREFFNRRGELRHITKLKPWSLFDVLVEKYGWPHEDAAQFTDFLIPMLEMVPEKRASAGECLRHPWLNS

Series 1
Compound: CO[C@H]1C[C@@H]2CC[C@@H](C)[C@@](O)(O2)C(=O)C(=O)N2CCCC[C@H]2C(=O)O[C@H]([C@H](C)C[C@@H]2CC[C@@H](O)[C@H](OC)C2)CC(=O)[C@H](C)/C=C(\C)[C@@H](O)[C@@H](OC)C(=O)[C@H](C)C[C@H](C)/C=C/C=C/C=C/1C
Effect on: enzyme activity
Mode: inhibitor
Tested at: 0.5 µM
Relative to: control
target | remaining activity
PTK6 (Homo sapiens, UniProt Q13882) | 88%
TTK (Homo sapiens, UniProt P33981) | 117%
PTK2 (Homo sapiens, UniProt Q05397) | 103%
SRPK2 (Homo sapiens, UniProt P78362) | 104%
CHUK (Homo sapiens, UniProt O15111) | 110%
TSSK1B (Homo sapiens, UniProt Q9BXA7) | 103%
SYK (Homo sapiens, UniProt P43405) | 97.1%

Series 2
Structure (SMILES): CC(C)(O)c1cncc(-c2nc3ccc(F)cc3n2C2CC2)c1
Effect on: cell-free assay
Method: competition with immobilised ligand
Tested at: 1 µM
target | remaining binding [%]
PIP5K1A (Homo sapiens, UniProt Q99755) | 76
CDK7 (Homo sapiens, UniProt P50613) | 88
TEK (Homo sapiens, UniProt Q02763) | 93
ALK (Homo sapiens, UniProt Q9UM73) | 77

Series 3
Target: Diamine acetyltransferase 1 (Homo sapiens, UniProt P21673)
Mode: inhibitor
Tested at: 10 µM
Relative to: control
Construct (P21673 1-171): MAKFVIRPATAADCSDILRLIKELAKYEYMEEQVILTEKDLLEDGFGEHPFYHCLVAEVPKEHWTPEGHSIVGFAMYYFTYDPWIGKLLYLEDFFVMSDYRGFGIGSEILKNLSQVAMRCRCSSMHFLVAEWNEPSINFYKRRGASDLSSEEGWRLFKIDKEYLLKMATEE
Structure (SMILES) | remaining activity [%]
Oc1cc(O)c2c(c1)O[C@H](c1ccc(O)c(O)c1)[C@H](O)[C@H]2c1c(O)cc(O)c2c1O[C@H](c1ccc(O)c(O)c1)[C@@H](O)C2 | 103
NCCC(=O)O | 96.8
O=c1c(O)c(-c2ccccc2)oc2cc(O)cc(O)c12 | 92.6
NC(=O)NCCCC(N)C(=O)O (centres unmarked) | 107
CC[C@H](/C=C/[C@@H](C)[C@H]1CC[C@H]2C3=CC[C@H]4C[C@@H](O)CC[C@]4(C)[C@H]3CC[C@]12C)C(C)C | 104
O=c1[nH]c(=O)c2ncn([C@@H]3O[C@H](CO)[C@@H](O)[C@H]3O)c2[nH]1 | 94.5

Series 4
Cell line: A-375
Tested at: 100 µM
Time: 18 h
Structure (SMILES) | viability
CN(C)[C@@H](CCOc1cccc2ccccc12)c1ccccc1 | 9.33%
CCC[C@@H]1C[C@@H](C(=O)N[C@@H]([C@H]2O[C@H](SC)[C@H](OP(=O)(O)O)[C@@H](O)[C@H]2O)[C@H](C)Cl)N(C)C1 | 99.5%
COc1cccc2c1C(=O)c1c(O)c3c(c(O)c1C2=O)C[C@@](O)(C(C)=O)C[C@@H]3O[C@H]1C[C@H](N)[C@H](O)[C@H](C)O1 | 22%
O=C1NCC2(CCN(CCc3ccccc3)CC2)O1 | 89%
CC1(C)O[C@H]2CC(=O)OC[C@]23[C@H]2CC[C@@]4(C)[C@H](c5ccoc5)OC(=O)[C@H]5O[C@]54[C@]2(C)C(=O)C[C@@H]13 | 96.9%
Cn1cnc2c1c(=O)[nH]c(=O)n2C | 97.4%

For quick reference, copied from above (series 4):
Structure (SMILES) | viability
CN(C)[C@@H](CCOc1cccc2ccccc12)c1ccccc1 | 9.33%
CCC[C@@H]1C[C@@H](C(=O)N[C@@H]([C@H]2O[C@H](SC)[C@H](OP(=O)(O)O)[C@@H](O)[C@H]2O)[C@H](C)Cl)N(C)C1 | 99.5%
COc1cccc2c1C(=O)c1c(O)c3c(c(O)c1C2=O)C[C@@](O)(C(C)=O)C[C@@H]3O[C@H]1C[C@H](N)[C@H](O)[C@H](C)O1 | 22%
